# Measured values from different studies.
# Protocols differ between the studies behind these lines.
# Organism: Staphylococcus aureus
Structure (SMILES),assay,system,conditions,MIC
CCCC(C)Oc1cccc(NC(=O)c2cccnc2)c1 (stereo not shown),"microbial growth, broth dilution",MB2865,,128 µg/mL
CN[C@H](CC(C)C)C(=O)N[C@H]1C(=O)N[C@@H](CC(N)=O)C(=O)N[C@H]2C(=O)N[C@H]3C(=O)N[C@H](C(=O)N[C@H](C(=O)NCc4cn(CC(=O)N[C@H](C(=O)N[C@@H](CCN)C(=O)N[C@H]5CCNC(=O)[C@H]([C@@H](C)O)NC(=O)[C@H](CCN)NC(=O)[C@H](CCN)NC(=O)[C@H](CC(C)C)NC(=O)[C@@H](CC(C)C)NC(=O)[C@H](CCN)NC5=O)[C@@H](C)O)nn4)c4cc(O)cc(O)c4-c4cc3ccc4O)[C@H](O)c3ccc(c(Cl)c3)Oc3cc2cc(c3O[C@@H]2O[C@H](CO)[C@@H](O)[C@H](O)[C@H]2O[C@H]2C[C@](C)(N)[C@H](O)[C@H](C)O2)Oc2ccc(cc2Cl)[C@H]1O,broth microdilution,"MRSA USA300, cation-adjusted Mueller-Hinton broth","20 to 24 h, 37 °C, 0.002% polysorbate 80",0.5 µg/mL
COc1c(NC(=O)c2ccc(NC(=O)[C@H](Cc3c[nH]nn3)NC(=O)c3ccc(NC(=O)/C(C)=C/c4ccc(O)cc4)cc3)cc2)ccc(C(=O)Nc2ccc(C(=O)O)cc2)c1O,broth microdilution,ciprofloxacin-resistant,,2 µg/mL
CC[C@H](C)[C@H](N)C1=N[C@H](C(=O)N[C@@H](CC(C)C)C(=O)N[C@H](CCC(=O)O)C(=O)N[C@H](C(=O)N[C@H]2CCCCNC(=O)[C@H](CC(N)=O)NC(=O)[C@@H](CC(=O)O)NC(=O)[C@H](Cc3c[nH]cn3)NC(=O)[C@@H](Cc3ccccc3)NC(=O)[C@H]([C@@H](C)CC)NC(=O)[C@@H](CCCN)NC2=O)[C@@H](C)CC)CS1,,USA300 methicillin-resistant,"18 h, 37 °C, 0.3 mM ZnSO4 LB",2 µg/mL
CCC(CC)c1cc(CCN2CCCN(S(C)(=O)=O)CC2)nc(-c2ccccn2)n1,"microbial growth, broth dilution",ATCC29213,,> 16 µg/mL
CCCCCCCCCCn1cc[n+](CCCCOc2cc(OCCCC[n+]3ccn(CCCCCCCCCC)c3)cc(OCCCC[n+]3ccn(CCCCCCCCCC)c3)c2)c1.[Br-].[Br-].[Br-],,SH1000 MSSA,,1 µM
CC1C=CC=CC(C)C2C=CC3CC(C)(O)C(Cl)C(C)C3C2C(=O)C(Cl)(Cl)C(=O)C(C)C(=O)O1 (stereo not shown),,MRSA clinical isolate,resistant: OXA,0.1 µg/mL
CC[C@H](C)[C@H](N)C1=N[C@H](C(=O)N[C@@H](CC(C)C)C(=O)N[C@H](CCC(=O)O)C(=O)N[C@H](C(=O)N[C@H]2CCCCNC(=O)[C@H](CC(N)=O)NC(=O)[C@@H](CC(=O)O)NC(=O)[C@H](Cc3c[nH]cn3)NC(=O)[C@@H](Cc3ccccc3)NC(=O)[C@H]([C@@H](C)CC)NC(=O)[C@@H](CCCN)NC2=O)[C@@H](C)CC)CS1,,ATCC 29213,together with: EDTA 0.3 mM,> 64 µg/mL
COc1nc(C(=O)O)ccc1NC(=O)c1ccc(NC(=O)c2ccc(NC(=O)[C@H](Cc3c[nH]nn3)NC(=O)c3ccc(NC(=O)/C(C)=C/c4ccc(O)cc4)cc3)cc2)c(OC)c1O,broth microdilution,ciprofloxacin-sensitive,,16 µg/mL
C=C1CN(C(=N)N)CC2Nc3c(F)cc(Br)cc3C12CCNS(=O)(=O)c1ccc(Cl)cc1.O=C(O)C(F)(F)F (stereo not shown),,MRSA ATCC BAA-44,compound alone,8 µg/mL
CC[C@H]1OC(=O)[C@H](C)[C@@H](OC(=O)c2ccc(N)cc2)[C@H](C)[C@@H](O[C@@H]2O[C@H](C)C[C@H](N(C)C)[C@H]2O)[C@](C)(OC)C[C@@H](C)C(=O)[C@H](C)[C@@H](O)[C@]1(C)O,,BAA-977,,> 256 µg/mL
CCCCCCC#Cc1cncc(-c2nnc(SCc3cc([N+](=O)[O-])cc([N+](=O)[O-])c3)n2C)c1,"microbial growth, broth dilution",MRSA,,> 64 µg/mL
COc1ccc(/N=N/C(=S)N2CCOCC2)cc1,"microbial growth, broth dilution",ATCCBAA44 MRSA,24 h,> 50 µM
CCCCCCCCCCn1cc[n+](CCCCCCOc2cc(OCCCCCC[n+]3ccn(CCCCCCCCCC)c3)cc(OCCCCCC[n+]3ccn(CCCCCCCCCC)c3)c2)c1.[Br-].[Br-].[Br-],,CA-MRSA USA300-0114,,2 µM
CN[C@H](CC(C)C)C(=O)N[C@H]1C(=O)N[C@@H](CC(N)=O)C(=O)N[C@H]2C(=O)N[C@H]3C(=O)N[C@H](C(=O)N[C@H](C(=O)O)c4cc(O)cc(O)c4-c4cc3ccc4O)[C@H](O)c3ccc(c(Cl)c3)Oc3cc2cc(c3O[C@@H]2O[C@H](CO)[C@@H](O)[C@H](O)[C@H]2O[C@H]2C[C@](C)(NCc3ccc(-c4ccc(Cl)cc4)cc3)[C@H](O)[C@H](C)O2)Oc2ccc(cc2Cl)[C@H]1O,,VRS2 (VanA VRSA),,4 µg/mL
CCCCCCCCCC[N+](C)(C)CCCCCCCCOc1cc(OCCCCCCCC[N+](C)(C)CCCCCCCCCC)cc(OCCCCCCCC[N+](C)(C)CCCCCCCCCC)c1.[Br-].[Br-].[Br-],,SH1000 MSSA,,2 µM
CC[C@H]1OC(=O)[C@H](C)[C@@H](OC(=O)Cc2cccc3ccccc23)[C@H](C)[C@@H](O[C@@H]2O[C@H](C)C[C@H](N(C)C)[C@H]2O)[C@](C)(OC)C[C@@H](C)C(=O)[C@H](C)[C@@H](O)[C@]1(C)O,,DSM 20231 MSSA,,8 µg/mL
CCOc1c(NC(=O)c2ccc(NC(=O)c3ccc(NC(=O)[C@H](Cc4c[nH]nn4)NC(=O)c4ccc(NC(=O)/C(C)=C/c5ccc(O)cc5)cc4)cc3)c(OC)c2O)ccc(C(=O)O)c1O,broth microdilution,ciprofloxacin-resistant,,0.125 µg/mL
CC[C@H]1OC(=O)[C@H](C)[C@@H](OC(=O)Cc2ccc([N+](=O)[O-])cc2)[C@H](C)[C@@H](O[C@@H]2O[C@H](C)C[C@H](N(C)C)[C@H]2O)[C@](C)(OC)C[C@@H](C)C(=O)[C@H](C)[C@@H](O)[C@]1(C)O,,ATCC 43300 MRSA,,> 128 µg/mL
CCCCCCCCn1cc[n+](CCCCCCOc2cc(OCCCCCC[n+]3ccn(CCCCCCCC)c3)cc(OCCCCCC[n+]3ccn(CCCCCCCC)c3)c2)c1.[Br-].[Br-].[Br-],,HA-MRSA ATCC 33591,,1 µM
O=[N+]([O-])c1c(Br)c(Cl)c2cccnc2c1O,"microbial growth, broth dilution",ATCC29213,,2 µg/mL
CC[C@H]1OC(=O)[C@H](C)[C@@H](OC(=O)Cc2cccc(Cl)c2)[C@H](C)[C@@H](O[C@@H]2O[C@H](C)C[C@H](N(C)C)[C@H]2O)[C@](C)(OC)C[C@@H](C)C(=O)[C@H](C)[C@@H](O)[C@]1(C)O,,DSM 20231 MSSA,,4 µg/mL
CC(C)C[C@@H]1NC(=O)[C@@H](CC(C)C)NC(=O)[C@H](CCN)NC(=O)[C@@H](NC(=O)[C@H](CCN)NC(=O)[C@@H](N)[C@@H](C)O)CCNC(=O)[C@H]([C@@H](C)O)NC(=O)[C@H](CCN)NC(=O)[C@H](CCN)NC1=O,,MSSA ATCC 29213,,> 138 µM
CCCCCC[N+](C)(C)CCCCCCCCCCOc1cc(OCCCCCCCCCC[N+](C)(C)CCCCCC)cc(OCCCCCCCCCC[N+](C)(C)CCCCCC)c1.[Br-].[Br-].[Br-],,CA-MRSA USA300-0114,,1 µM
COc1c(NC(=O)c2ccc(NC(=O)c3ccc(NC(=O)[C@H](Cc4c[nH]nn4)NC(=O)c4ccc(NC(=O)/C(C)=C/c5ccc(O)cc5)cc4)cc3)cc2)ccc(C(=O)O)c1O,broth microdilution,ciprofloxacin-sensitive,,8 µg/mL
CC[C@H]1OC(=O)[C@H](C)[C@@H](OC(=O)Cc2ccccc2[N+](=O)[O-])[C@H](C)[C@@H](O[C@@H]2O[C@H](C)C[C@H](N(C)C)[C@H]2O)[C@](C)(OC)C[C@@H](C)C(=O)[C@H](C)[C@@H](O)[C@]1(C)O,,BAA-977,,1 µg/mL
CCCC(=O)Oc1c(C)c(OC)c2c(c1C)OC(=O)[C@@H](CC)[C@]2(O)/C=C/c1ccccc1 (racemic),"microbial growth, broth dilution",ATCC25923,,5000 µg/mL
CCCCCCCC[N+](C)(C)CCCCCCCCCCOc1cc(OCCCCCCCCCC[N+](C)(C)CCCCCCCC)cc(OCCCCCCCCCC[N+](C)(C)CCCCCCCC)c1.[Br-].[Br-].[Br-],,HA-MRSA ATCC 33591,,16 µM
O=C(Nc1ccccc1)Nc1ccc(Cl)c(C(F)(F)F)c1,microbial growth,NCTC8325,,3 µM
CCCCCCCC[N+](C)(C)CCCCOc1cc(OCCCC[N+](C)(C)CCCCCCCC)cc(OCCCC[N+](C)(C)CCCCCCCC)c1.[Br-].[Br-].[Br-],,HA-MRSA ATCC 33591,,2 µM
CC[C@H]1OC(=O)[C@H](C)[C@@H](OC(=O)Cc2c(F)cccc2F)[C@H](C)[C@@H](O[C@@H]2O[C@H](C)C[C@H](N(C)C)[C@H]2O)[C@](C)(OC)C[C@@H](C)C(=O)[C@H](C)[C@@H](O)[C@]1(C)O,,BAA-977,,2 µg/mL
CCCCCCCCCC[N+](C)(C)CCCCCCOc1cc(OCCCCCC[N+](C)(C)CCCCCCCCCC)cc(OCCCCCC[N+](C)(C)CCCCCCCCCC)c1.[Br-].[Br-].[Br-],,SH1000 MSSA,,1 µM
CC[C@H]1OC(=O)[C@H](C)[C@@H](O[C@H]2C[C@@](C)(OC)[C@@H](O)[C@H](C)O2)[C@H](C)[C@@H](O[C@@H]2O[C@H](C)C[C@H](N(C)C)[C@H]2O)[C@](C)(OC)C[C@@H](C)C(=O)[C@H](C)[C@@H](O)[C@]1(C)O,,ATCC 43300 MRSA,,> 256 µg/mL
C=C/C=C(\C)CC[C@@H](O)C[C@H](O)CC(=O)OC,"microbial growth, broth dilution",ATCC6538P,,256 µg/mL

# Repeated from above:
Structure (SMILES),assay,system,conditions,MIC
CC[C@H]1OC(=O)[C@H](C)[C@@H](OC(=O)Cc2cccc(Cl)c2)[C@H](C)[C@@H](O[C@@H]2O[C@H](C)C[C@H](N(C)C)[C@H]2O)[C@](C)(OC)C[C@@H](C)C(=O)[C@H](C)[C@@H](O)[C@]1(C)O,,DSM 20231 MSSA,,4 µg/mL
CC(C)C[C@@H]1NC(=O)[C@@H](CC(C)C)NC(=O)[C@H](CCN)NC(=O)[C@@H](NC(=O)[C@H](CCN)NC(=O)[C@@H](N)[C@@H](C)O)CCNC(=O)[C@H]([C@@H](C)O)NC(=O)[C@H](CCN)NC(=O)[C@H](CCN)NC1=O,,MSSA ATCC 29213,,> 138 µM
CCCCCC[N+](C)(C)CCCCCCCCCCOc1cc(OCCCCCCCCCC[N+](C)(C)CCCCCC)cc(OCCCCCCCCCC[N+](C)(C)CCCCCC)c1.[Br-].[Br-].[Br-],,CA-MRSA USA300-0114,,1 µM
